Published values of several laboratories.
AMY2: Pancreatic alpha-amylase (AMY2, Sus scrofa, UniProt P00690)
Chain of UniProt P00690 (whole entry, looked up): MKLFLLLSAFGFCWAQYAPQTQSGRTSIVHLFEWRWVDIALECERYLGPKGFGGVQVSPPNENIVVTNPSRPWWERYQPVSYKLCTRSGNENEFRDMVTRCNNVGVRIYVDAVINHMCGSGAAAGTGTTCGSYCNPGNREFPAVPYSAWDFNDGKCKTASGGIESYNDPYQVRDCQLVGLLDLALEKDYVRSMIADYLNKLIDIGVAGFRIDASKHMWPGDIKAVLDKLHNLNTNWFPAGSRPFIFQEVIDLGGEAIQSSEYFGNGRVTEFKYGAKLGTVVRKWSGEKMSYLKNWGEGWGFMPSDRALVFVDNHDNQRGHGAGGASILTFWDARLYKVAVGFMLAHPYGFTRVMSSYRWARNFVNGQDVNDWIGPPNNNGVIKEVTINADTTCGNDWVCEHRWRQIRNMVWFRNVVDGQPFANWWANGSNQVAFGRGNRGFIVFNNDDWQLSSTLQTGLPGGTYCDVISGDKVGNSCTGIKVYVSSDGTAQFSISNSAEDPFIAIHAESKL
PIP4K2C: Phosphatidylinositol 5-phosphate 4-kinase type-2 gamma (PIP4K2C, Homo sapiens, UniProt Q8TBX8)
Chain of UniProt Q8TBX8 (whole entry, looked up): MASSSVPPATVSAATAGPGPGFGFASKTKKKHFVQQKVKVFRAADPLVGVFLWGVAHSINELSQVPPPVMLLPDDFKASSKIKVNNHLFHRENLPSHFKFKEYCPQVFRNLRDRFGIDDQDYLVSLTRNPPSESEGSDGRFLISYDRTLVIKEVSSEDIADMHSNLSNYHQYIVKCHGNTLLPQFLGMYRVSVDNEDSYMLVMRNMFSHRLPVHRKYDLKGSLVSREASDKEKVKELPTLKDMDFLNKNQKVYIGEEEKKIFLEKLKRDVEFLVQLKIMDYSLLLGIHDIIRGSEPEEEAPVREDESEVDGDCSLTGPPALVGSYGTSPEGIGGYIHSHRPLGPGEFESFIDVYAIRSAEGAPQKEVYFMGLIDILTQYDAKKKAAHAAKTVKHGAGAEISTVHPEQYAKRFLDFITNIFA
rep main protease: Replicase polyprotein 1ab, main protease (rep, Porcine epidemic diarrhea virus, UniProt P0C6Y4)
SLC6A2: Sodium-dependent noradrenaline transporter (SLC6A2, Homo sapiens, UniProt P23975)
Chain of UniProt P23975 (whole entry, looked up): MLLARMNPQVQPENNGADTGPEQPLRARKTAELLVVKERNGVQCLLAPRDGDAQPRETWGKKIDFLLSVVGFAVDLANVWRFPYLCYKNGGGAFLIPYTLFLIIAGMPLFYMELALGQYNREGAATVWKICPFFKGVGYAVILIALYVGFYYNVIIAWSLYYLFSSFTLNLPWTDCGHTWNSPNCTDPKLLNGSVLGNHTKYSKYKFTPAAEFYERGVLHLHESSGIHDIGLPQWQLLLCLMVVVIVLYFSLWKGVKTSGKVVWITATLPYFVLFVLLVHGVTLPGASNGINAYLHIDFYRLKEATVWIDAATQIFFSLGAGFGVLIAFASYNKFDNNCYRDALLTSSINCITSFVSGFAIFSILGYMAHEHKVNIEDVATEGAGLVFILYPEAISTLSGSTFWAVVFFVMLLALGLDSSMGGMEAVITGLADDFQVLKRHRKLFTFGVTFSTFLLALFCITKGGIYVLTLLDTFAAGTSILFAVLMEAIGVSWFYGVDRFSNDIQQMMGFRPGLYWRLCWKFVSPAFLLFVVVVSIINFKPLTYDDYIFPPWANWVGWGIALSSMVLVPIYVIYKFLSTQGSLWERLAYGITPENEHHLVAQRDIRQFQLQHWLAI
NT5E: 5'-nucleotidase (NT5E, Homo sapiens, UniProt P21589)
Chain of UniProt P21589 (whole entry, looked up): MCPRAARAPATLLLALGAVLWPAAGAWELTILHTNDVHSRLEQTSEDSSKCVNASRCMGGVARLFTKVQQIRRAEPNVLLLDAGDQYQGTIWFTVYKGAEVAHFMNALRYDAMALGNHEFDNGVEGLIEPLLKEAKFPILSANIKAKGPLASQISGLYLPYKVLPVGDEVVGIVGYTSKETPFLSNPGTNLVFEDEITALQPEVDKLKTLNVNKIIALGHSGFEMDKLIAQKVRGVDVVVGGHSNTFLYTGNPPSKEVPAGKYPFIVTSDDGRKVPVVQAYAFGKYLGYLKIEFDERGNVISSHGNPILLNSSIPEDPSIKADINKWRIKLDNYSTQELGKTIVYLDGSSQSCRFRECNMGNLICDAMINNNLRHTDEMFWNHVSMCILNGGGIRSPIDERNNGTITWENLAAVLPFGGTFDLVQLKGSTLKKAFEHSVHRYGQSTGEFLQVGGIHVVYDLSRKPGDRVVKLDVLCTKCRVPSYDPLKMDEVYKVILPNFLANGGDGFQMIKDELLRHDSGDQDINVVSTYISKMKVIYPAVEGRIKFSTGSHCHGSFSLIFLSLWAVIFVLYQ
rep papain-like protease: Replicase polyprotein 1ab, papain-like protease (rep, Porcine epidemic diarrhea virus, UniProt P0C6Y4)
CDK7 with cyclin H: Cyclin-dependent kinase 7, with cyclin H (CDK7, Homo sapiens, UniProt P50613)
Chain of UniProt P50613 (whole entry, looked up): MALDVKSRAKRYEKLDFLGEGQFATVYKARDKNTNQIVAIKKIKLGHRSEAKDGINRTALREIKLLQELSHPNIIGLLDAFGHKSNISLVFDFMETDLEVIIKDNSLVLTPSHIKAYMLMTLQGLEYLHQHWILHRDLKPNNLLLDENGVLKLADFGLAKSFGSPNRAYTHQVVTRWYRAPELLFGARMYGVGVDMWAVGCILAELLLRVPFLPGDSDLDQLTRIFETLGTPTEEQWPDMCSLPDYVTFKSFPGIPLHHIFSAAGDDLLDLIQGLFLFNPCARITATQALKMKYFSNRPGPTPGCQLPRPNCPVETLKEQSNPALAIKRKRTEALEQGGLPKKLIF
SLC22A11: Solute carrier family 22 member 11 (SLC22A11, Homo sapiens, UniProt Q9NSA0)
Chain of UniProt Q9NSA0 (whole entry, looked up): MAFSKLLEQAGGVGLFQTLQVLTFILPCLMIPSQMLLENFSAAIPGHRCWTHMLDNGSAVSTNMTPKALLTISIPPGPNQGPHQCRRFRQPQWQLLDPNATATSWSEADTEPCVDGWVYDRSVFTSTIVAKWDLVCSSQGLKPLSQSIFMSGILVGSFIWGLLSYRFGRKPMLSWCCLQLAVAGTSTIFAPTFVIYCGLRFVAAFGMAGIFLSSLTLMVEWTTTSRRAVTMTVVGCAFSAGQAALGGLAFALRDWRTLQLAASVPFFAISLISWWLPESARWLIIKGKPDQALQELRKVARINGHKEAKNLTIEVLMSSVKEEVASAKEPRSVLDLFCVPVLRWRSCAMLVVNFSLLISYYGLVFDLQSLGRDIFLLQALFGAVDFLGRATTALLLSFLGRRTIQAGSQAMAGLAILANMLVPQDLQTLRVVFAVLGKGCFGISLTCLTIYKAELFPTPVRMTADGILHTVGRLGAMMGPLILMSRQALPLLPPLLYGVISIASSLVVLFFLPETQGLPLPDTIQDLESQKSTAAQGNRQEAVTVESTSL
Chain of UniProt Q07343 (whole entry, looked up): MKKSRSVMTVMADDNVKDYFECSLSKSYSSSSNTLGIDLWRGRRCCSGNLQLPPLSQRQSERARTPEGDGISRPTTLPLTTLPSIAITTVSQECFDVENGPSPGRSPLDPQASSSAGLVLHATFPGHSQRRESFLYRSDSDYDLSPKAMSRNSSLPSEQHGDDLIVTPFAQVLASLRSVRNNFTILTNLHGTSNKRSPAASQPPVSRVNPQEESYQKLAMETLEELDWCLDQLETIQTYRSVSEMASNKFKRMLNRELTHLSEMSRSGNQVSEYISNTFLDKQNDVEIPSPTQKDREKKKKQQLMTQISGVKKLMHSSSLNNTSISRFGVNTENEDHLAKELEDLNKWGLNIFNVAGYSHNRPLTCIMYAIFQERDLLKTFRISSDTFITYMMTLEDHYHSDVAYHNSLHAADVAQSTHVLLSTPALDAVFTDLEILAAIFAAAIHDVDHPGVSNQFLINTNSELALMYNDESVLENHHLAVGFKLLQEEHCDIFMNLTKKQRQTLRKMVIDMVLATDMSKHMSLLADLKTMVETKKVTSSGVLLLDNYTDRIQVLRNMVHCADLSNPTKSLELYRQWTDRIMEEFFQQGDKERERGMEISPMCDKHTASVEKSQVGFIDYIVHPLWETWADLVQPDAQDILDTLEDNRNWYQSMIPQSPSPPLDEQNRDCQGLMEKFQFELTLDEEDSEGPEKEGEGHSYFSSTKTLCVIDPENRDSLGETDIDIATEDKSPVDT
Chain of UniProt P27338 (whole entry, looked up): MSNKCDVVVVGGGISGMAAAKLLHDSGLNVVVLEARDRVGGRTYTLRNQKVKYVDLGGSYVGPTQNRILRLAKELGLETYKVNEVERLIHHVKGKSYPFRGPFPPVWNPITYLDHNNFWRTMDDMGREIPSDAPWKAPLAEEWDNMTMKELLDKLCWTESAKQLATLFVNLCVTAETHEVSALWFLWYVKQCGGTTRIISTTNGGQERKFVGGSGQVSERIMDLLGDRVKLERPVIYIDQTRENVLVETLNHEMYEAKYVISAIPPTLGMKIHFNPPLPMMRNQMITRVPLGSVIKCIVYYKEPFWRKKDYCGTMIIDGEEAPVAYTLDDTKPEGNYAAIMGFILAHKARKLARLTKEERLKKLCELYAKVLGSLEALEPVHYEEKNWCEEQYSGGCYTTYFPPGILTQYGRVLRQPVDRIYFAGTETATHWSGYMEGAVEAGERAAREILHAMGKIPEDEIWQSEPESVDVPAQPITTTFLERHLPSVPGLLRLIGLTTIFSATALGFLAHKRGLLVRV
Chain of UniProt P46098 (whole entry, looked up): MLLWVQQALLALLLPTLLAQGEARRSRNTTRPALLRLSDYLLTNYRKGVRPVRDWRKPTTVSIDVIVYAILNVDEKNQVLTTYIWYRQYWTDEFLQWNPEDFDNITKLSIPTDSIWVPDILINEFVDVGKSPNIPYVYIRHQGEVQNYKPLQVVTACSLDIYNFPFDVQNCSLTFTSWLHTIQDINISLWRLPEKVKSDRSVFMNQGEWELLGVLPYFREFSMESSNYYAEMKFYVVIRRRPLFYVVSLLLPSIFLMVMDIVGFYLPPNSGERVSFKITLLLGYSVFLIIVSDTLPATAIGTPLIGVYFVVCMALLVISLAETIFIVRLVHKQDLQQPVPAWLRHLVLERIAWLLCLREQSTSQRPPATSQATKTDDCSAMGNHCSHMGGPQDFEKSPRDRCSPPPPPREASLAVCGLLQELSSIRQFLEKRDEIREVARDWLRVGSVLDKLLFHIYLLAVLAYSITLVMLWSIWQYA

CN1CC(Oc2cnc(C#N)cc2-c2ccn3nc(NC(=O)C4CC4)cc3c2)C1
inhibition (CLK4 (Homo sapiens, UniProt Q9HAZ1); enzyme activity, inhibitor; 1 µM): -5%

CNc1cc(Oc2cc(C(=O)Nc3cc(N4CCN(C)CC4)cc(C(F)(F)F)c3)ccc2C)ncn1
inhibition (SGK3 (Homo sapiens, UniProt Q96BR1); target engagement in cells, inhibitor, chemoproteomics; Huh-7; 1 µM): -14.5%

CCN(O)N=Nc1ccc(S(=O)(=O)Nc2onc(C)c2C)cc1
inhibition (AMY2; enzyme activity, inhibitor; 120 µg/mL): 36.8%

CCCCC(=O)Nc1ccc(-c2ccc3ncn(CCCC)c(=O)c3c2)cn1
inhibition (PIP4K2C; binding; 0.5 µM): 99.4%

CCN(CC)c1ccc(C2=NNC(=O)CC2C)cc1[N+](=O)[O-] (centres unmarked)
inhibition (PDE1A (Homo sapiens, UniProt P54750); enzyme activity, inhibitor; 0.1 µM): 5%

CCCCC(=O)Nc1ccc(-c2ccc3ncn(CC4CCC4)c(=O)c3c2)cn1
inhibition (PIP4K2C; binding, competition with immobilised ligand; 0.5 µM): 99.6%

Cn1c(C(=O)NCc2cc(O)c(O)c(Br)c2)cc2ccccc21
inhibition (rep main protease; enzyme activity, inhibitor, FRET; 10 µM): 138%

CNc1nc(C#Cc2ccc(Cl)s2)nc2c1ncn2[C@H]1[C@H](O)[C@H](O)[C@]2(CC#N)C[C@H]12
inhibition (SLC6A2; ligand displacement, radioligand; 10 µM): 37%

COC(=O)c1ccc(NC(=O)CSc2nc(C)cc(-c3ccccc3)c2C#N)cc1
inhibition (NT5E; enzyme activity, inhibitor; 10 µM): 17%

CCOC(=O)[C@@]12C[C@@H]1[C@@H](n1cnc3c(NCCCCc4ccccc4)nc(I)nc31)[C@H](O)[C@@H]2O
inhibition (SLC6A2; ligand displacement, radioligand; 10 µM): 7%

CCC(C(=O)NCc1cc(O)c(O)c(Br)c1)c1ccccc1 (centres unmarked)
inhibition (rep papain-like protease; enzyme activity, inhibitor, FRET; 10 µM): 75.6%

Cc1cc(-c2ccccc2)nc(SCC(=O)Nc2cccnc2)c1C#N
inhibition (NT5E; enzyme activity, inhibitor; 10 µM): 35%

Cc1noc(NS(=O)(=O)c2ccc(N=NN(O)c3ccccc3)cc2)c1C
inhibition (AMY2; enzyme activity, inhibitor; 20 µg/mL): 15.8%

C[C@@H]1CC[C@@]2(OC1)O[C@H]1C[C@H]3[C@@H]4CC=C5C[C@@H](O)CC[C@]5(C)[C@H]4CC[C@]3(C)[C@H]1[C@@H]2C
inhibition (CDK7 with cyclin H; enzyme activity, inhibitor, ADP detection; 10 µM): 19.1%

O=S(=O)(Nc1nccs1)c1ccc(N=NN(O)c2ccccc2)cc1
inhibition (AMY2; enzyme activity, inhibitor; 240 µg/mL): 63.2%

N#Cc1c(C(F)(F)F)cc(-c2ccccc2)nc1SCC(=O)Nc1ccon1
inhibition (NT5E; enzyme activity, inhibitor; 10 µM): 17%

COc1cc(CNC(=O)c2cccc3ccccc23)cc(Br)c1OC
inhibition (rep papain-like protease; enzyme activity, inhibitor, FRET; 10 µM): 17.2%

N#Cc1c(Cl)c(Cl)c(Cl)c(C#N)c1Cl
inhibition (SLC22A11; transporter uptake, inhibitor; 25 µM): 77.4%

CCOC(=O)c1ccc(NC(=O)c2sc3nc(-c4ccccc4)cc(C(F)(F)F)c3c2N)cc1
inhibition (NT5E; enzyme activity, inhibitor, HPLC; 10 µM): 92%

CCCCC(=O)Nc1cc(C)c(-c2ccc3ncn(CCC)c(=O)c3c2)cn1
inhibition (PIP4K2C; binding, competition with immobilised ligand; 0.5 µM): 38%

Cc1cc(NS(=O)(=O)c2ccc(N=NN(C)O)cc2)no1
inhibition (AMY2; enzyme activity, inhibitor; 180 µg/mL): 42.1%

O=c1cc(-c2ccc(O)cc2)oc2cc(O)cc(O)c12
inhibition (AMY2; enzyme activity, inhibitor; 50 µM, 30 min): 88%

CCOC(=O)c1ccc(NC(=O)c2sc3nc(C)cc(-c4ccccc4)c3c2N)cc1
inhibition (NT5E; enzyme activity, inhibitor; 10 µM): -21%

Cc1cccc(N(O)N=Nc2ccc(S(=O)(=O)Nc3nccs3)cc2)c1
inhibition (AMY2; enzyme activity, inhibitor; 180 µg/mL): 42.1%

CC1(C)[C@@H](O)CC[C@]2(C)[C@H]3C(=O)C=C4[C@H]5C[C@@](C)(C(=O)O)CC[C@]5(C)CC[C@@]4(C)[C@]3(C)CC[C@@H]12
inhibition (CDK7 with cyclin H; enzyme activity, inhibitor, ADP detection; 10 µM): -9.7%

COc1ccc(CNC(=O)c2ccccc2)cc1OC
inhibition (rep papain-like protease; enzyme activity, inhibitor, FRET; 10 µM): 49.4%

O=c1c2cc(O)c(O)cc2oc2cc(O)c([C@@H]3O[C@H](CO)[C@@H](O)[C@H](O)[C@H]3O)c(O)c12
inhibition (CDK7 with cyclin H; enzyme activity, inhibitor, ADP detection; 10 µM): 40.5%

Cc1cccc(N(O)N=Nc2ccc(S(=O)(=O)Nc3onc(C)c3C)cc2)c1
inhibition (AMY2; enzyme activity, inhibitor; 300 µg/mL): 68.4%

COc1ccc(C(=O)NCc2cc(Br)c(OC)c(OC)c2)cc1
inhibition (rep papain-like protease; enzyme activity, inhibitor, FRET; 10 µM): 98.1%

CCCn1cnc2ccc(-c3ccc(NC(=O)CC(C)CC)nc3)cc2c1=O (centres unmarked)
inhibition (PIP4K2C; binding, competition with immobilised ligand; 0.5 µM): 98.4%

CC[C@H](C)[C@H](NC(=O)[C@H](CCC(N)=O)NC(=O)[C@H](CC(C)C)NC(=O)[C@H](CCSC)NC(=O)[C@H](CCCCN)NC(=O)[C@H](CO)NC(=O)[C@H](CO)NC(=O)[C@H](CCSC)NC(=O)[C@H](CC(C)C)NC(=O)[C@H](CC(N)=O)NC(=O)[C@@H](NC(=O)[C@@H](NC(=O)[C@H](CO)NC(=O)[C@H](CC(C)C)NC(=O)[C@H](CS)NC(=O)[C@H](CCCNC(=N)N)NC(=O)[C@H](CC(=O)O)NC(=O)[C@H](Cc1c[nH]c2ccccc12)NC(=O)[C@H](Cc1ccccc1)NC(=O)[C@H](C)NC(=O)[C@H](CCC(=O)O)NC(=O)[C@@H](N)CCCCN)C(C)C)[C@@H](C)CC)C(=O)N[C@@H](CC(N)=O)C(=O)N[C@@H](C)C(=O)O
inhibition (MAPK3 (Homo sapiens, UniProt P27361); enzyme activity, inhibitor, radiometric; 10 µM): 0%

CCCc1nc(C(C)(C)O)c(C(=O)O)n1Cc1ccc(-c2ccccc2-c2nnn[nH]2)cc1
inhibition (SLC22A11; transporter uptake, inhibitor; 25 µM): 50 to 90%

COc1cc2c(cc1OC)C(=O)N(CC1CCN(Cc3ccc(F)nc3)CC1)C2
inhibition (ache (Electrophorus electricus, UniProt O42275); enzyme activity, inhibitor; 1 µM): -5.38%

NC/C(=C\F)COc1cccc(Cn2c(=S)[nH]c(=O)c3[nH]cnc32)c1
inhibition (HTR3A (Homo sapiens, UniProt P46098); ligand displacement, radioligand; 10 µM): < 50%

Cc1cccc(N(O)N=Nc2ccc(S(=O)(=O)Nc3cc(C)on3)cc2)c1
inhibition (AMY2; enzyme activity, inhibitor; 240 µg/mL): 57.9%

O=C(Nc1ccc(Br)cc1)c1ccc2c(c1)C(=O)NC2=O
inhibition (MAOB (Homo sapiens, UniProt P27338); enzyme activity, inhibitor; 1 µM): 15.7%

COCCOCCOCCNC(=O)c1sc2nc(C)cc(C)c2c1N
inhibition (NT5E; enzyme activity, inhibitor; 10 µM): -1%

CCc1nn(C)c2nc(-c3ccc(C(=O)O)cc3)nc(NCc3ccc(F)cc3)c12
inhibition (PDE4B (Homo sapiens, UniProt Q07343); enzyme activity, inhibitor, radiometric; 10 µM): 54.3%

COc1cc(CNC(=O)c2cccc(Br)c2)cc(Br)c1OC
inhibition (rep main protease; enzyme activity, inhibitor, FRET; 10 µM): 23.2%

CC[C@H](C)[C@H](NC(=O)[C@H](CCC(N)=O)NC(=O)[C@@H](NC(=O)[C@H](CCSC)NC(=O)[C@H](CCCCN)NC(=O)[C@H](CO)NC(=O)[C@@H](NC(=O)[C@H](CCSC)NC(=O)[C@H](CC(C)C)NC(=O)[C@H](CC(N)=O)NC(=O)[C@@H](NC(=O)[C@@H](NC(=O)[C@H](CO)NC(=O)[C@H](CC(C)C)NC(=O)[C@H](C)NC(=O)[C@H](CCCNC(=N)N)NC(=O)[C@H](CCC(=O)O)NC(=O)[C@H](Cc1ccc(O)cc1)NC(=O)[C@H](Cc1ccccc1)NC(=O)[C@H](C)NC(=O)[C@H](CC(N)=O)NC(=O)[C@@H](N)CCCCN)[C@@H](C)CC)[C@@H](C)CC)[C@@H](C)O)C(C)C)C(=O)N[C@@H](CC(N)=O)C(=O)N[C@H](C(=O)O)C(C)C
inhibition (Cyclin-dependent kinase 5, with p25 (CDK5, Homo sapiens, UniProt Q00535); enzyme activity, inhibitor, radiometric; 100 µM): 46%

COc1ccc(C(=O)NCc2cc(O)c(O)c(Br)c2)cc1
inhibition (rep papain-like protease; enzyme activity, inhibitor, FRET; 10 µM): 97.9%

Cc1cc(NS(=O)(=O)c2ccc(N=NN(O)c3ccccc3)cc2)no1
inhibition (AMY2; enzyme activity, inhibitor; 20 µg/mL): 15.8%

CCOC(=O)c1ccc(NC(=O)c2sc3nc(C)cc(C(F)(F)F)c3c2N)cc1
inhibition (NT5E; enzyme activity, inhibitor; 10 µM): 41%

CC(=O)Oc1cccc(C(=O)NCc2cc(O)c(O)c(Br)c2)c1C
inhibition (rep main protease; enzyme activity, inhibitor, FRET; 10 µM): 83%

Repeated from above:
CCCCC(=O)Nc1ccc(-c2ccc3ncn(CCCC)c(=O)c3c2)cn1
inhibition (PIP4K2C; binding; 0.5 µM): 99.4%

CCN(CC)c1ccc(C2=NNC(=O)CC2C)cc1[N+](=O)[O-] (centres unmarked)
inhibition (PDE1A (Homo sapiens, UniProt P54750); enzyme activity, inhibitor; 0.1 µM): 5%
